Measurements of several laboratories.
A part holds a random share of what one study measured.

Block 1
Target: Ras GTPase-activating protein-binding protein 1, full length (G3BP1, Homo sapiens, UniProt Q13283)
Chain of UniProt Q13283 (whole entry, looked up): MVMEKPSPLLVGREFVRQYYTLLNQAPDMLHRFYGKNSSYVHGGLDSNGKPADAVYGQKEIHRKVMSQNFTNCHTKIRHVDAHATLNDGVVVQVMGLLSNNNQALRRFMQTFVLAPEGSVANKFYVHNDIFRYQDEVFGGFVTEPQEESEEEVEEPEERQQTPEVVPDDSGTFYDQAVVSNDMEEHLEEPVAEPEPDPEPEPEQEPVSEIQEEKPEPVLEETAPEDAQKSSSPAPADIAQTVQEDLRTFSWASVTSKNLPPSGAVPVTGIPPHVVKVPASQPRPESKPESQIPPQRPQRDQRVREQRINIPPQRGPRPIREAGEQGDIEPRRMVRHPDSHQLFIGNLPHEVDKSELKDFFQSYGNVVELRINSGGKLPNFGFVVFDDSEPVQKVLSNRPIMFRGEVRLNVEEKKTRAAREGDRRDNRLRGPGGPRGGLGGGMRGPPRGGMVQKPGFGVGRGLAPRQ
Technique: RNA Bind-n-Seq
Molecule type: RNA
Matrix: in vitro
Concentration: 200 nM
Notes: whole 134-nt RNA, ends assumed
With: 150 mM LiCl
Relative to: input library
Reading: higher = stronger binding
Each molecule: 7-deaza-guanosine replaces G
Oligonucleotide | log2 enrichment
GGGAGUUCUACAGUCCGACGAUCUGGCCCUGGUGGCAUGCGGGGAGGAAGAGGUGGCCUCAUGGAUCGUGGUGGUCCCGGUGGAAUAUUCAGAGGUGGCCGUGGUGGAGACAGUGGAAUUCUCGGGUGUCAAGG | 0.466
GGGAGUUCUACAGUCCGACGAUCCUCAAGUCCUGUGCUACACAUCGUAUGUACCGAAUCGGUUGGGUUGGGGUUGGAAAGUAUUAUGUUACGCCGUUCGGAUCUGCACUUCCAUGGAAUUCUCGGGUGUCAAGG | 0.276
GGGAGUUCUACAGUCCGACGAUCCAAGUCCUGUGCUACACAUCGUAUGUACCGAAUCGGGGUGGGGAAAGGGGUGGGGAAAGUAUUAUGUUACGCCGUUCGGAUCUGCACUUCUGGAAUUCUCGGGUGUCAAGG | -0.552
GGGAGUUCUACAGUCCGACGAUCUGGCCCUGGUGGCAUGCGGGGAGGAAGAGGUGGCCUCAUGGAUCUUGGUGGUCCCGGUGGAAUGUUCAGAGGUGGCCGUGGUGGAGACAGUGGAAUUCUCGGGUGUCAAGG | 0.0673
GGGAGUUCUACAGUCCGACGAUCAGUCCUGUGCUACACAUCGUAUGUACCGAAUCGGGUUUUGGUUUUGGGGUUUUGGGGAAAGUAUUAUGUUACGCCGUUCGGAUCUGCACUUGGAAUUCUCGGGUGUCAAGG | 0.0653
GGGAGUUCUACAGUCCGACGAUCCAAGUCCUGUGCUACACAUCGUAUGUACCGAAUCGGGAAAGGGAAAGGGAAAGGGGAAAGUAUUAUGUUACGCCGUUCGGAUCUGCACUUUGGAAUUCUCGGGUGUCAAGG | -0.527
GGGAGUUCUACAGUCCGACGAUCUCUUUAUUUGAGCCAGUCUUGCAAGGUUAACUUCUCACUGGGCCUAGUGUGGUGCCCAGGUUUUUGCCUUGCUUCACUUCUGUCUCUACAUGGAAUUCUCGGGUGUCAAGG | -0.996
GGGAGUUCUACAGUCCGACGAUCGCAGGAAGUAAAAACAAAUGGAAAUGCUGCGGAUAGUGGCAGGGGUGGGGGUUGCUAAGGAAAGGGUGGGAUGGGAGUGGGUAAAGAGUUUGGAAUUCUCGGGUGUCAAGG | 0.65

Block 2
Target: Histone acetyltransferase KAT6A, winged helix 2, GST fusion (KAT6A, Homo sapiens, UniProt Q92794, residues 85-181)
Technique: protein binding microarray
Molecule type: double-stranded DNA, one strand shown
Matrix: in vitro
Concentration: not given
Notes: 8-mer, flanks averaged, mean of 2 arrays, mostly near background
Relative to: not given
Reading: higher = stronger binding
Construct (chain): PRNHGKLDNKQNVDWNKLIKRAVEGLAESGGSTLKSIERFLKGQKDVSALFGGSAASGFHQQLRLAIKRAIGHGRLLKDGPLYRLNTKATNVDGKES
Oligonucleotide | E-score
AGAACCCT | -0.13
CGTTATTC | -0.0761
ATGATACC | 0.135
ACGTCCAG | -0.198
CAAACTGG | 0.146
CCCAGACA | -0.0247
GCAGGCCA | 0.238
CCCCAGCG | 0.107
GCACCAAA | 0.0381
GCGCTTAA | -0.0872
ACGCCCTC | 0.057
CGGCGTGA | 0.0935
ATAGTAGG | -0.0845
GATATTCA | -0.124
ACTTTCAG | 0.0332
AGGCCCCC | 0.062
CGCGGAGA | 0.268
CGGGGGTC | 0.0176
ACATGTAA | -0.0731
ACACAAGG | -0.0334
AAGACATT | -0.15
GAGATTCC | -0.0951
AGATAATC | 0.0791
AAATATCG | -0.077
AACTTCCG | -0.00663

Block 3
Target: RNA binding protein fox-1 homolog 2, RRM domain, GST-SBP tag (RBFOX2, Homo sapiens, UniProt O43251-10, residues 100-194)
Technique: RNA Bind-n-Seq
Molecule type: RNA
Matrix: in vitro
Concentration: 365 nM
Notes: natural RNA segment, single round, ends assumed
Relative to: no-protein control
Reading: higher = stronger binding
Construct (chain): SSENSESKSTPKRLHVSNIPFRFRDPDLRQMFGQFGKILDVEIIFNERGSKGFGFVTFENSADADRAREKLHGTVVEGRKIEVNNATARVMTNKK
Oligonucleotide | RBNS enrichment (R)
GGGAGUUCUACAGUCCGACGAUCUGUGUGACCUGCAGGGCAUGAGGUAUUGAUGUGUUCGGGUUUCCUUUCCCAAGCCAGCAGAUGCAGGUGUUCCAAGGUGUGUUGCUCUGUGGGAUUUGUGGACACUUAAGUGGAAUUCUCGGGUGCCAA | 2.07
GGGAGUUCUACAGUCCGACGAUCCUUCUCUUGGCCACCCUGGCCCUGACCGGGCCAGCACGUGCACACUGGCCUCUUUUCAUUUCACUAGUGGCCGAGACACCCUCUCUGGCAUUUAUCACUGUUGGCCGGUGUGGAAUUCUCGGGUGCCAA | 0.99
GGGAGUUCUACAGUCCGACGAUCCAGUCAGGAGGUGAGAGGCUGAGGAAAGAGCCAGCAUCAGGAGGUGACUCUGGUUGGCAAGGGUGAGCUGUGCUUGGCCAGGAAGGUGGCAUUAAAGGCUGUGCUCACGUUGGAAUUCUCGGGUGCCAA | 1.05
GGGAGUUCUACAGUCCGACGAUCUGUGUAGCUAGACUGUUAACCUACGAUUGUAAACUAGCUGUAAGGAUUUCCCAGUGAAAUCAGAUUUGGAAAGAAAAGAGAGAUAGUUCUCCGGGAUGCAUAGAUUCAUGUGGAAUUCUCGGGUGCCAA | 0.979
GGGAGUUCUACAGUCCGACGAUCUUUUUAAUUUUGAUUCAGAAGUAGUCCCAGCUCAUAGGUGUUCAUACUGUUACAUCCAGAACAUUUGUCAGGCUCUCUGUCAGCUUUCAUGUACAUAUGGUAUAGAAACCUGGAAUUCUCGGGUGCCAA | 0.265
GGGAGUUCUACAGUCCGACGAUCAGGACCCAGGAGAGUUCACGGGAGGCUUCAUCAUAUGAAAGGACAAUGUUCUGGGUUGUGCAUGAAAUUGGAUCUGUAGACACUGUGGAAACGUUUGAAAGUGUUUGUUUUGGAAUUCUCGGGUGCCAA | 3.34
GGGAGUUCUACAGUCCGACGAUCUCUCACCCUAGCCAAAGGUCCUAAGAGGAGACCCGCUGUGAAGUCUGGCCUGCUCUUUGGUACCAGCUGUGACUUUUCAGUUUCUCCUGCUUUGAGGUUGUUCACGAAACUGGAAUUCUCGGGUGCCAA | 0.262
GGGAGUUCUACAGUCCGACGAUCAGUAGCCAAGGGAAGCCUCCAGAGAGCACAGAUGUGAACCCUCAGCAGCAGGCAUCACCCCCCAGUGGACUCGGGUGGGCCACCAGUAGCAUCUUCUAGAUGGCAGAGGGUGGAAUUCUCGGGUGCCAA | 0.272
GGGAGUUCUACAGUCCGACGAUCGGAGGCAGGUUAGGUAGUGCAGGGGCCAUUGGCAGCAGGGGCUUUGGAGUCAGACAGGCCUGGCACAGGCACUGGAGCUACUGAAUGAAGCUCUAGCUUAGCCUUCUCAGUGGAAUUCUCGGGUGCCAA | 0.573

Block 4
Target: RING finger protein unkempt homolog, zinc fingers 1-6, GST-SBP tag (UNK, Homo sapiens, UniProt Q9C0B0, residues 30-357)
Technique: RNA Bind-n-Seq
Molecule type: RNA
Matrix: in vitro
Concentration: not given
Notes: RNA with constant flanks, human and mouse sites, ends assumed
Relative to: input RNA pool
Reading: higher = stronger binding
Residues (chain): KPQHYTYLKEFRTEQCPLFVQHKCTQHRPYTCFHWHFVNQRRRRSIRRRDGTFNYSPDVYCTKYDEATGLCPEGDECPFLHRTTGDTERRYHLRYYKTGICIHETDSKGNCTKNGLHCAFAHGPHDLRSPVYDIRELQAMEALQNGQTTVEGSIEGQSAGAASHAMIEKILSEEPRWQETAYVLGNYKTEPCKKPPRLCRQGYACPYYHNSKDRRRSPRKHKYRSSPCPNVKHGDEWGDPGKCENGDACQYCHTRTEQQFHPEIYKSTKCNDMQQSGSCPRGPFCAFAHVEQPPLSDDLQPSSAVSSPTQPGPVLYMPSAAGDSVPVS
Oligonucleotide | bound/input enrichment
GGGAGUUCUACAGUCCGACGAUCUGAAGUGGUUUUUGUGGGUGUGAAACAAAUGGUGAGAAUUUGAAUUGGUCCCUCCUAUUAUAGUAUUGAAAUUAAGUCUACUUAAUUUAUCAAGUCAUGUUCAUGCCCUGAUUUUAUAUACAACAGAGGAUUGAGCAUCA | 3.1 ratio
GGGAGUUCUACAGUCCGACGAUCGAUAUUGAAAAUAACAUGCCAGAGUUUUUACUAAAAAGUAUGAAAAAGAAGCCGCCUUCUACAGCUAAAAAGAUGUUCUUAAUAGUUGCUCCUCUUUCUGUCCUCUACAACUGGAAGGAUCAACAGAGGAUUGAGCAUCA | 0.388 ratio
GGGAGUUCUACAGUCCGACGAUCAACCCCAACGCCUGCAGCUAUGGCGUGGCCGUGGGCGUGCUCGCCUUCCUCACCUGCCUGCUGUACCUGGCCCUGGACGUGUACUUCCCGCAGAUCAGCAGCGUCAAGGACCGCAAGAAACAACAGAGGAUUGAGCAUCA | 0.0987 ratio
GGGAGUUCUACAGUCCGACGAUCCAGUUGAAGUAUCAGAGAAUCUUGGAACGAUUAGAAAAGGAGAACAAAGAAUUGAGAAAAUUAGUAUUGCAGAAAGAUGACAAAGGCAUUCAUCAUAGAAAGCUUAAGAAAUCUUUGAUUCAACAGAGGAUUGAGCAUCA | 5.35 ratio
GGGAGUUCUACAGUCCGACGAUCCUUGGUGGCGAAUGUGUUGCGGGUCCUGUUGGGCUGCUUUCUGUAUUGUCUCCUAACCCUCUAGUUUUAAUUGGACACUUCUUUGCUGUUGCAAUCUAUGCCGUGUAUUUUUGCUUUAAGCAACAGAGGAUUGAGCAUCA | 3.93 ratio
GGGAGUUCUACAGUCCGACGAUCGAAGAUGAUGAAGAAUCUGGACGAUUACGUUUCAAAACUGAAAGGAAAGAAGGAACAAUUAUUAGGCUCUCAGAUGUAACUAGAGAGAGAAGGAACAUUCCAGAAACUUUGGAGCUUUCACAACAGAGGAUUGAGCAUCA | 0.268 ratio
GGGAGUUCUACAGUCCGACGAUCCUGGGUUUGCCAGCUGUUCCUGCGGUGACACUGUAUAAACACGAUGACCCUGCCUUGACUUUAGUUGCUGGUCUUACAUCAAAUAAGCCCACAGACAAACUCCGUGCCCUGCCUCUGUGGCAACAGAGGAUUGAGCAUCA | 0.0875 ratio
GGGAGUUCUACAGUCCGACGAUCAUUUUUCAGAGAAGUAUAGAUACUGUCUCCACUCCCUAAUAAUUUCUCUCCCUAACAUUUUAGCAAUUUUUACCUUGUUUGGGGGUUCAUUUUGUUUCUUCAGAUUUGAUUUAGACUCUGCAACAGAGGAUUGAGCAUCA | 8.96 ratio
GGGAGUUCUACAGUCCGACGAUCAAAGAAGUUGAAUCCCAGCUUCCCGAAAAAGUGGAAUAUGUGAUCAAGUGUGACAUGUCAGCUCUGCAGAAGAUUCUGUAUCGCCAUAUGCAAGCCAAGGGGAUCCUUCUCACAGAUGGUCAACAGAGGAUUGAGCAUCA | 0.0912 ratio
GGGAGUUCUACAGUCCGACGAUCAGUAGAGAUUCAGCACAGUUGGACUUCAGGAACAGGGACAUACAUUCUGGGGAUUUUCGGGAUAGAGAAGGACCACCUAUGGACUACAGGGGUGGAGAUGGUACUCCUAUGGAUUAUAGACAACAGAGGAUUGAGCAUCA | 1.2 ratio
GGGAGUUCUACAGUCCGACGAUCGAAGUCACCCCAAACCCCAGCUCCCACUUUCAGGGGCACCUCUCAGAUGGCCAUGCUCAGUAUCCCUUCCAGACAGGCCCUCCCCUCUCUAGCGCCCCCUCUGUGGCUCCUAGGGCUGAACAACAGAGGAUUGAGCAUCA | 0.708 ratio

Excerpt of the above (block 2):
Oligonucleotide | E-score
GCACCAAA | 0.0381
GATATTCA | -0.124
CCCAGACA | -0.0247
ATGATACC | 0.135
